# Measured values collected from several papers.
# Each line is one published result; not all experiments were run side by side. ± gives the spread as reported.
# cofactor-independent phosphoglycerate mutase W431C: cofactor-independent phosphoglycerate mutase (Metamycoplasma orale, UniProt A0A448ZXM1, W431C)
# MMP14: Matrix metalloproteinase-14 (MMP14, Homo sapiens, UniProt P50281)
# Chain of UniProt P97612 (whole entry, looked up): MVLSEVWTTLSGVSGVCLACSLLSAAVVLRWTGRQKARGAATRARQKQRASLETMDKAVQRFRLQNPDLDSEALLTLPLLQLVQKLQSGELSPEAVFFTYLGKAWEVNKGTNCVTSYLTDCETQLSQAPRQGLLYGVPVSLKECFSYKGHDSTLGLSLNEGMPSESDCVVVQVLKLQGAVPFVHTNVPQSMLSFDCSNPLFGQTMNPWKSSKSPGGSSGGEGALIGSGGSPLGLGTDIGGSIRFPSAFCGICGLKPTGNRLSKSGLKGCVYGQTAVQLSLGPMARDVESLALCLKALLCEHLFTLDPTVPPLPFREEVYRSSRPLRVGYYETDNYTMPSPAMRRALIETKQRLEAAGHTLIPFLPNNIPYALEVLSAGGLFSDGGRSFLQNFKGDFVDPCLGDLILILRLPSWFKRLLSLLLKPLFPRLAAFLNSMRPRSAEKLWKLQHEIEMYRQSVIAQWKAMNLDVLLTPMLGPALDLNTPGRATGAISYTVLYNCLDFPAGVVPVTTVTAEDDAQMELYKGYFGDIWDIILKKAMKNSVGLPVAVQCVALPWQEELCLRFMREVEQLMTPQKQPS
# Chain of UniProt O43148 (whole entry, looked up): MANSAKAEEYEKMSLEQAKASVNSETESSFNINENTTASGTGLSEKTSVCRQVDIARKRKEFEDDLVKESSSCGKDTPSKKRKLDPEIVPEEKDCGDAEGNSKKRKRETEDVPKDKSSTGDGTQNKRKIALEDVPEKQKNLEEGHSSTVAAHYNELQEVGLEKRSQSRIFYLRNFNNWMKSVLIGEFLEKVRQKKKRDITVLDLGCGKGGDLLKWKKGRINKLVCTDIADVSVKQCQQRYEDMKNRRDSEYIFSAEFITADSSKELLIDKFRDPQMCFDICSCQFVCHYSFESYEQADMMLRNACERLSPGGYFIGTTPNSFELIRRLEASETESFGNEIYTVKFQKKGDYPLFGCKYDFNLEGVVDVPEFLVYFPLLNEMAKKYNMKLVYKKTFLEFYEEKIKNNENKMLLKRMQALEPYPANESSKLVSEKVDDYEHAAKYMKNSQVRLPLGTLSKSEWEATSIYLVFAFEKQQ
# Chain of UniProt P62942 (whole entry, looked up): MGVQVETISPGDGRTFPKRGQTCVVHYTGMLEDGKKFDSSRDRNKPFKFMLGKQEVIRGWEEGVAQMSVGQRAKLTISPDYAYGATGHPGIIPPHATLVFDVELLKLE
# Chain of UniProt P13346 (whole entry, unmodified, looked up): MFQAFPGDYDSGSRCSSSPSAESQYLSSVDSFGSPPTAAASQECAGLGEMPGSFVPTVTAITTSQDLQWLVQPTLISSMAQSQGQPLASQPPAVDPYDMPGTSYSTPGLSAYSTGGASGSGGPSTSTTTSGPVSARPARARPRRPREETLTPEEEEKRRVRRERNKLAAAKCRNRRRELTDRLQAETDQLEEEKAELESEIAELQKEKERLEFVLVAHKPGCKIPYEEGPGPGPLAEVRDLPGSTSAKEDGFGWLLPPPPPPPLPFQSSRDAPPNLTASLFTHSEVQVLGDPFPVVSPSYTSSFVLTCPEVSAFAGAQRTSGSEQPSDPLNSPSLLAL
# Chain of UniProt P03303 (whole entry, looked up): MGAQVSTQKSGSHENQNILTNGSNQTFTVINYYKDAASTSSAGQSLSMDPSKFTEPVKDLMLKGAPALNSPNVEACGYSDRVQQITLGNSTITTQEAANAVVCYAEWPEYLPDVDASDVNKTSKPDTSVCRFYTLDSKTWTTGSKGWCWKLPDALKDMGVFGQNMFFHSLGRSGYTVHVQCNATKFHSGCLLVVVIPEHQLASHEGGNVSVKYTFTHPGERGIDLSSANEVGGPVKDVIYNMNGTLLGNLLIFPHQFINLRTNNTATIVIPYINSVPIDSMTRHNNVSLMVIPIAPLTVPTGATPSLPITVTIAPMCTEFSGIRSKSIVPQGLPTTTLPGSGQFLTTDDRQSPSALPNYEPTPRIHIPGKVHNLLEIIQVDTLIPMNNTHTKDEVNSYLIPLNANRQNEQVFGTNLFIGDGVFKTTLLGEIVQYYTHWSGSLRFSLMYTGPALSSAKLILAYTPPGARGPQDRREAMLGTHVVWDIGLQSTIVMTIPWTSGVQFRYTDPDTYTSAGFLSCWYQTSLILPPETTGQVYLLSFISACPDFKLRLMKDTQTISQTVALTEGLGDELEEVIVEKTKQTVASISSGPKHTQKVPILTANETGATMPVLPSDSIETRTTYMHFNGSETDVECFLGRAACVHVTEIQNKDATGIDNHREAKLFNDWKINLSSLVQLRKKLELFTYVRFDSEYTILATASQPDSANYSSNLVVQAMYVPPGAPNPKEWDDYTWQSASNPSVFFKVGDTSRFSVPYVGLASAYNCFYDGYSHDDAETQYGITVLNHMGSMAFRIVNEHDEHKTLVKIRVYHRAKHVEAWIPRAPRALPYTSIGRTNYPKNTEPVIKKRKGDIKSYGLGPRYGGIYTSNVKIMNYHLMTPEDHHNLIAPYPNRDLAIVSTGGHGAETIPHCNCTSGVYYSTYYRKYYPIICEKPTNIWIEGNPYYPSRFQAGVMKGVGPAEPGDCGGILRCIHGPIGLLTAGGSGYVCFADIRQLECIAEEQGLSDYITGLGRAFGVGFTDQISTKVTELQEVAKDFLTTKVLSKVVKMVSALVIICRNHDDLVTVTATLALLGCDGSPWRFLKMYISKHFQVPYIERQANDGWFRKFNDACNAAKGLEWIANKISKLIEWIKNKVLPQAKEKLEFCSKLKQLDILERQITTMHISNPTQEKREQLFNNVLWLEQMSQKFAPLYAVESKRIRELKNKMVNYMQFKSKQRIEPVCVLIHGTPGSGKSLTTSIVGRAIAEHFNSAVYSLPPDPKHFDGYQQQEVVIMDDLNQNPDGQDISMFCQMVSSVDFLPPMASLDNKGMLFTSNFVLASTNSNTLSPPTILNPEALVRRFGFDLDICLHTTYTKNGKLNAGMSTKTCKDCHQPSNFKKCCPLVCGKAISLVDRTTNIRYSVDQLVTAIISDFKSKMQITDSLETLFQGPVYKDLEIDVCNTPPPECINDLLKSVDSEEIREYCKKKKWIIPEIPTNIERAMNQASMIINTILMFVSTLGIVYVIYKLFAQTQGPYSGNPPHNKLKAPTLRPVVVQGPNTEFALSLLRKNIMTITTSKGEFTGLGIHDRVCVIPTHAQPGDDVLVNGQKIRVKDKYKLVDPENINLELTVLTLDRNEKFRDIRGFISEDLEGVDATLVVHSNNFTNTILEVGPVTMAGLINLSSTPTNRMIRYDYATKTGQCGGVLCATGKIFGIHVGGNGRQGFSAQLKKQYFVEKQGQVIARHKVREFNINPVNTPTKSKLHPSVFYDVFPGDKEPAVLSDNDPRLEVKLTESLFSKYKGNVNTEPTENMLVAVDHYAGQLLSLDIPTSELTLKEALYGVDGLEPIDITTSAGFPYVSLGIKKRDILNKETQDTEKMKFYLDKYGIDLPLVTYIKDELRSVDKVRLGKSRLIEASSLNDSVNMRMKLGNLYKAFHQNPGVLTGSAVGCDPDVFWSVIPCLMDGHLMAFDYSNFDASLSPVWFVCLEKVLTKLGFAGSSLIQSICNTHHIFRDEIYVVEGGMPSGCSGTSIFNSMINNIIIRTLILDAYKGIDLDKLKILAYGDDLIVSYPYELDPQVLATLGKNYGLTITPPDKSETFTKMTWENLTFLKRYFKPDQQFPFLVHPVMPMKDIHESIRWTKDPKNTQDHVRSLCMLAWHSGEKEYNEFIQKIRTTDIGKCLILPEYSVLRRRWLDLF
# Chain of UniProt O08619 (whole entry, looked up): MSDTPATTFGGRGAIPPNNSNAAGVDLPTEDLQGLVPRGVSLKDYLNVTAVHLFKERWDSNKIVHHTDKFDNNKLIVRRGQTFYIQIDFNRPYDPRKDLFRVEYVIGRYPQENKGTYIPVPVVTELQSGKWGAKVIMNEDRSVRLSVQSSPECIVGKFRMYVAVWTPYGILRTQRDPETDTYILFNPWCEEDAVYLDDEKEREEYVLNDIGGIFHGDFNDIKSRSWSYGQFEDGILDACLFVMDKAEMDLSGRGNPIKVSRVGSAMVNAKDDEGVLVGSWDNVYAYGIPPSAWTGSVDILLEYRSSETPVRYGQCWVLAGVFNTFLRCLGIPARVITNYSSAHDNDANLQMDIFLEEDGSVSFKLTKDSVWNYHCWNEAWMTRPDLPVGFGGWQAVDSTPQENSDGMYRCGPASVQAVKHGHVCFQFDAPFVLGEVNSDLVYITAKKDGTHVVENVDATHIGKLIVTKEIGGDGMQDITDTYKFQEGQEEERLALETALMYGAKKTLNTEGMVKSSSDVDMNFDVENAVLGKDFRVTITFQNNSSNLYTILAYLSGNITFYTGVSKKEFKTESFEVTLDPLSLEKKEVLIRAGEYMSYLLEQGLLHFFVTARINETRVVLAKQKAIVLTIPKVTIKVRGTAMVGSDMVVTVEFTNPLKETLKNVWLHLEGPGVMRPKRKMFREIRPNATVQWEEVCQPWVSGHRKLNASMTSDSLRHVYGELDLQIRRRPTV
# Chain of UniProt P30550 (whole entry, looked up): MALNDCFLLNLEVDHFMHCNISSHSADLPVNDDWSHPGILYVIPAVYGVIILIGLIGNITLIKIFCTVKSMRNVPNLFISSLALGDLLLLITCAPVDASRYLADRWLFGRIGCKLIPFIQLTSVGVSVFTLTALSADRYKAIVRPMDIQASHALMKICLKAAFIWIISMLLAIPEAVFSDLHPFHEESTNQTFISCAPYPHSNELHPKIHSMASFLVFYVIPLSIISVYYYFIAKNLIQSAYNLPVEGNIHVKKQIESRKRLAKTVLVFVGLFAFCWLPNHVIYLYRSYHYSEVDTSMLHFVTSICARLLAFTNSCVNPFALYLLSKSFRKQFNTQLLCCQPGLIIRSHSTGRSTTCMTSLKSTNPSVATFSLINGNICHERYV
Compound,tested on,test,system,conditions,measurement,value
COC(=O)C[C@H](NC(=O)[C@H](C)NC(=O)[C@@H](NC(=O)[C@H](CC(=O)OC)NC(=O)[C@@H](NC(=O)c1ccc2ccccc2n1)C(C)C)C(C)C)C(=O)COc1c(F)cccc1F,"Caspase-3 (CASP3, Homo sapiens, UniProt P42574)","enzyme activity, inhibitor",,,IC50,0.0473 µM
CSCC[C@H](NC(=O)[C@H](Cc1ccccc1)NC(=O)[C@H](Cc1c[nH]cn1)NC(=O)CNC(=O)[C@@H](NC(=O)[C@H](C)NC(=O)[C@H](Cc1c[nH]c2ccccc12)NC(=O)[C@H](CCC(N)=O)NC(=O)[C@@H]1CCCN1C(=O)[C@@H](NC(=O)[C@@H]1CCC(=O)N1)C(C)C)C(C)C)C(N)=O,"Gastrin-releasing peptide receptor (GRPR, Homo sapiens, UniProt P30550)","ligand displacement in cells, radioligand",,,IC50,0.00224 µM
C[C@@H](O)[C@@H]1NC(=O)[C@H](CC(=O)O)NC(=O)[C@@H]2CCCN2C(=O)[C@H](Cc2ccc(O)cc2)NC(=O)CSC[C@@H](C(N)=O)NC(=O)[C@H](Cc2c[nH]cn2)NC(=O)[C@H](Cc2c[nH]c3ccccc23)NC(=O)[C@H](CCC(=O)O)NC(=O)[C@H](CC(=O)O)NC(=O)[C@H](Cc2ccc(O)cc2)N(C)C(=O)[C@H](Cc2ccc(O)cc2)NC(=O)[C@H](Cc2c[nH]c3ccccc23)NC(=O)[C@H](Cc2c[nH]c3ccccc23)NC(=O)[C@H](CC(N)=O)NC1=O,cofactor-independent phosphoglycerate mutase W431C,biochemical,Mycoplasma orale,,AC50,0.00245 µM
O=c1ccc2cc(O[C@@H]3O[C@H](CO)[C@@H](O)[C@H](O)[C@H]3O)c(O)cc2o1,"Carbonic anhydrase 9 (CA9, Homo sapiens, UniProt Q16790)","enzyme activity, inhibitor",,,IC50,0.327 µM
CC(C)[C@@H]1NC(=O)[C@H](CCCNC(=N)N)NC(=O)[C@H](Cc2ccc(O)cc2)NC(=O)[C@H](CO)NC(=O)[C@H](Cc2ccc(O)cc2)NC(=O)[C@H](CC(N)=O)NC(=O)CNC(=O)[C@H](Cc2ccc(O)cc2)NC(=O)[C@H](Cc2ccccc2)NC(=O)[C@H](CC(=O)O)NC(=O)[C@H](Cc2ccc(O)cc2)NC(=O)[C@H](Cc2ccccc2)NC(=O)[C@H](Cc2ccc(O)cc2)NC(=O)[C@H](Cc2ccc(O)cc2)NC(=O)CSC[C@@H](C(N)=O)NC(=O)[C@@H]2CCCN2C1=O,cofactor-independent phosphoglycerate mutase W431C,biochemical,Mycoplasma orale,,AC50,17.8 µM
CC(=O)N[C@H]1CSC(=O)[C@H](Cc2ccccc2)NC(=O)[C@H](CC(C)C)NC(=O)[C@H](CO)NC(=O)[C@H](CO)NC1=O,"Receptor-histidine kinase AgrC (agrC, Staphylococcus aureus, UniProt O07911)",,,,IC50,0.0959 µM
C1CCc2c(c(N3CCOCC3)nc3sc4c(N5CCNCC5)nnnc4c23)C1,"Beta-glucuronidase (uidA, Escherichia coli, UniProt P05804)","enzyme activity, inhibitor, absorbance",,pH 7.5,IC50,0.117 µM
NC(=O)C[C@H](NC(=O)[C@H](CC(N)=O)NC(=O)[C@H](CCC(=O)O)NC(=O)[C@@H](N)CS)C(=O)O,"PPO3 (Agaricus bisporus, UniProt C7FF04)","enzyme activity, inhibitor",,,IC50,144 µM
CN[C@](C)(C[18F])C(=O)O,DU-145 tumour model,,"host not given, heart","15 min, tumour-bearing",tracer uptake,2.6 %ID/g
CC(C)[C@H](NC(=O)c1ccc(CCc2nc3c(c(=O)[nH]2)CCC3)cc1)C(=O)NC1COC1,MMP14,"enzyme activity, inhibitor",,,IC50,> 5 µM
COc1ccc(CC[C@H]2OC(=O)[C@@H]3CCCCN3C(=O)C(=O)C(C)(C)COC(=O)/C=C\CCN(C)C(=O)[C@H](CC(C)C)N(C)C(=O)[C@H]3CCCN3C(=O)[C@H](Cc3ccccc3)N(C)C(=O)[C@@H](c3ccccc3)NC(=O)CCC(=O)Nc3cccc2c3)cc1OC,"FKBP1A/SLC29A1 (Homo sapiens, UniProt P62942+Q99808)","thymidine uptake, inhibitor",PK-15 expressing hENT1,"30 min, together with: [3H]-thymidine",IC50,0.469 µM
O=P(O)(O)Oc1ccc(Oc2ccc(S(=O)(=O)CC3CS3)cc2)cc1 (racemic),MMP14,"enzyme activity, inhibitor",,,Ki,32.6 µM
COC(=O)C=CCCC(NC(=O)c1ccncc1C(=O)O)C(=O)NC(C(=O)N1CC(=O)CC1C(=O)NC(C(=O)NC(C(N)=O)C1CCCCC1)C1CCCCC1)C(C)(C)C (stereo not drawn),"Coagulation factor XIII A chain (Rat, UniProt O08619)","transamidation activity, inhibitor",,"rat enzyme, together with: dansylcadaverine into N,N-dimethylcasein",IC50,0.017 ± 0.0006 µM
NC(=O)CCC1CCCN(C(=O)c2c[nH]n3c2nc(=O)c2ccccc23)C1 (stereo not drawn),"Genome polyprotein, 3C protease (rhinovirus B14, UniProt P03303)","3C protease activity, SAMDI-MS",human rhinovirus,,IC50,> 100 µM
O=C(NCCCCCn1ccc2ccc(F)cc21)Oc1ccccc1F,"Fatty-acid amide hydrolase 1 (Faah, Rattus norvegicus, UniProt P97612)",,rat brain homogenate,"60 min, 37 °C",IC50,0.017 µM
COc1ccc(C(=O)CCl)c2c1C(=O)CO2,"Fosb/Jund, ΔFosB isoform (Mus musculus, UniProt P13346+P15066)","ΔFOSB/JUND DNA binding, fluorescence polarization",,"15 min, together with: TMR-cdk5 oligonucleotide",IC50,22.3 ± 1.9 µM
O=C1C=CC(=O)C=C1,"mRNA cap guanine-N(7) methyltransferase, with RAM (RNMT, Homo sapiens, UniProt O43148)","N7-methyltransferase activity, inhibitor, Py-FLINT",,"RNMT-RAM complex, together with: SAM 20 µM",IC50,30.6 ± 4.3 µM
COC(=O)CC[C@@H]1NC(=O)[C@H](Cc2c[nH]c3ccccc23)NC(=O)[C@H](CC(=O)O)NC(=O)[C@H](CO)NC(=O)[C@@H]2CCCN2C(=O)[C@H](Cc2ccc(O)cc2)NC(=O)[C@@H](NC(=O)[C@H](CC(C)C)NC(=O)[C@@H](NC(=O)[C@H](CO)NC(=O)[C@H](CO)NC(=O)[C@H](CCCNC(=N)N)NC(C)=O)[C@@H](C)O)CCCCNC(=O)CC[C@@H](C(=O)N[C@@H](Cc2ccccc2)C(=O)O)NC1=O,"Chymotrypsinogen A (Bos taurus, UniProt P00766)","enzyme activity, inhibitor, fluorescence",,,IC50,4 µM
